Published values from different studies.
Each numbered part is a random draw from the data of one study; scales do not carry over between parts.
Sequence of UniProt P32298 (whole entry, looked up): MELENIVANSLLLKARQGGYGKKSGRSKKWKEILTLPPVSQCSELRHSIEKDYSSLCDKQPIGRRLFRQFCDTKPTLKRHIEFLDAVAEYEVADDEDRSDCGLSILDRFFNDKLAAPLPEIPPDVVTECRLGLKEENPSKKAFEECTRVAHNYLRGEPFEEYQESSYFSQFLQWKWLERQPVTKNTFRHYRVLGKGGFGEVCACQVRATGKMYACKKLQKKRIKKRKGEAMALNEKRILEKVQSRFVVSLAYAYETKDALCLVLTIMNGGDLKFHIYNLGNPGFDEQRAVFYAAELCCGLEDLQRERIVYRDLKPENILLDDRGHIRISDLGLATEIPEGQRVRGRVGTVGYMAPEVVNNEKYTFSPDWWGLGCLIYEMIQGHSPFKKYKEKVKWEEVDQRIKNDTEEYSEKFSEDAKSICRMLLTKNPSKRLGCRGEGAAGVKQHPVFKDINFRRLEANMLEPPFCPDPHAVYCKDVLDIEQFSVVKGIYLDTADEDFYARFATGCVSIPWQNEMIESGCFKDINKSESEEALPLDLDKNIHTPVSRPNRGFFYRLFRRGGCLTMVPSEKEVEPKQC
Sequence of UniProt O95747 (whole entry, looked up): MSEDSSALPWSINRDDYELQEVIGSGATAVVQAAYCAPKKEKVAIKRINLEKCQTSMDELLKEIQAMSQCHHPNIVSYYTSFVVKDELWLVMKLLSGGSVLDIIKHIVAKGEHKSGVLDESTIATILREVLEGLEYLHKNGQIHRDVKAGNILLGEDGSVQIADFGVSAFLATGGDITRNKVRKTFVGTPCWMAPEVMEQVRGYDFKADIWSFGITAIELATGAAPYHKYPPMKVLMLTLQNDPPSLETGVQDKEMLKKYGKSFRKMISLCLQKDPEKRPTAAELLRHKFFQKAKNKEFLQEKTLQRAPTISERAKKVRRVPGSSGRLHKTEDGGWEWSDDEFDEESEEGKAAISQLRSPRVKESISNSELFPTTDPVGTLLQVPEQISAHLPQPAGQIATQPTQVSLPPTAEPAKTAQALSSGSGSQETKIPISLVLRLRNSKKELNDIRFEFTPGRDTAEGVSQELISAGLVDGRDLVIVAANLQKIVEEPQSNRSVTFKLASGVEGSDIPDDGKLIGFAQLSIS
Sequence of UniProt P52333 (whole entry, looked up): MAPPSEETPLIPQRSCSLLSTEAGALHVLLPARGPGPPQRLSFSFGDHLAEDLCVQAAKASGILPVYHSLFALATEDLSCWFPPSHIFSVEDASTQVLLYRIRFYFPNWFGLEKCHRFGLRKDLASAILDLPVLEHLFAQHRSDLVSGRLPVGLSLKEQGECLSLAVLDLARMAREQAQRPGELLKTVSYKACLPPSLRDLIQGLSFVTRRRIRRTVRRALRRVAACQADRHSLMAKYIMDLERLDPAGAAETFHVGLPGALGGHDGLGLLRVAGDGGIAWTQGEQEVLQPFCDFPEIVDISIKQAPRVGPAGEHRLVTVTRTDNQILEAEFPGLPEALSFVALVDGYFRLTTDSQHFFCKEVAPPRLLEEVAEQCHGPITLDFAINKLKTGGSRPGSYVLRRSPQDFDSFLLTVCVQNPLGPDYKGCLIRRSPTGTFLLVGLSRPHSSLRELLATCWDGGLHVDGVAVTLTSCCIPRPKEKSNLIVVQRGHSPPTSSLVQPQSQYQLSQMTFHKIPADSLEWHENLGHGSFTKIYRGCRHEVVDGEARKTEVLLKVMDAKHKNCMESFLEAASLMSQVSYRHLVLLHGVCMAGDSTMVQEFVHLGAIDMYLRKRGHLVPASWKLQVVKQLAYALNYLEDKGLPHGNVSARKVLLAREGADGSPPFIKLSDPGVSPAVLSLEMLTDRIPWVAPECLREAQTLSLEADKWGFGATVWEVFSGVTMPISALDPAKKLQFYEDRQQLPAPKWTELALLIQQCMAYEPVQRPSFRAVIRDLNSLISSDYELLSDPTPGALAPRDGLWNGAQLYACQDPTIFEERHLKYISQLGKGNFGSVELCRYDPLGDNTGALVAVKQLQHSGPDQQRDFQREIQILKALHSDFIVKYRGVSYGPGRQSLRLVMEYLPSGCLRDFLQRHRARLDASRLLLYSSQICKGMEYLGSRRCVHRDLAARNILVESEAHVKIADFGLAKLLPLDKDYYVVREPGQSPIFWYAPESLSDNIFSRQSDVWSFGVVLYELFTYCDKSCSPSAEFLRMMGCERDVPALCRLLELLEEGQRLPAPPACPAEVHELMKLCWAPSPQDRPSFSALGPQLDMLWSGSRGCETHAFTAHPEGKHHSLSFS
Sequence of UniProt P29323 (whole entry, looked up): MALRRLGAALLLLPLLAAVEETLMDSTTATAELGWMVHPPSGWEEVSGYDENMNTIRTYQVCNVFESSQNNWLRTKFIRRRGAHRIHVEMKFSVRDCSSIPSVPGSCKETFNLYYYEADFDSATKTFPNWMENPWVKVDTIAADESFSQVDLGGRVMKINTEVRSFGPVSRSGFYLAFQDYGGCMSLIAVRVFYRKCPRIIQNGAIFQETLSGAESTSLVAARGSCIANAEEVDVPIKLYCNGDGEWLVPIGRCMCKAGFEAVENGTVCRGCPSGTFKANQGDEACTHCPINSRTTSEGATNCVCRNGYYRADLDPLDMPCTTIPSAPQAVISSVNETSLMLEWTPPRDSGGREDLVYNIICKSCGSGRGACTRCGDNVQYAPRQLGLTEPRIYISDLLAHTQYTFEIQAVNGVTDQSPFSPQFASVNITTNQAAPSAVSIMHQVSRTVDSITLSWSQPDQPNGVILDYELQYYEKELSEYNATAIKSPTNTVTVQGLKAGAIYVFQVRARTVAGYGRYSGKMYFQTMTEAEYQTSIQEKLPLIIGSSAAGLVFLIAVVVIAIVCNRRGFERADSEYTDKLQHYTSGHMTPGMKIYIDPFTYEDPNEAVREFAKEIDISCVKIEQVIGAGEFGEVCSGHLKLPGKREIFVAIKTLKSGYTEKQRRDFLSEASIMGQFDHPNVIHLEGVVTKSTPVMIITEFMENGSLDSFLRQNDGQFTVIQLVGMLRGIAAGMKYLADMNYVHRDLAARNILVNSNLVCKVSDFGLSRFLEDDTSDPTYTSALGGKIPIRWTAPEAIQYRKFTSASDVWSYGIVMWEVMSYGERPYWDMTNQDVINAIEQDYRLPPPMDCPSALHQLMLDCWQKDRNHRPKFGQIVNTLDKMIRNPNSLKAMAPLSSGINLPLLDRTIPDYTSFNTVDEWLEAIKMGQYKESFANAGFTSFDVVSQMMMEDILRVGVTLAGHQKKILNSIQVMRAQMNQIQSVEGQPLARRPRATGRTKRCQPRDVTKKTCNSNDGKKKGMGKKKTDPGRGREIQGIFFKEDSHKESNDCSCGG

Series 1 — host: human; matrix: microsomes or S9; tested at: 2 µM; time: 0.5 h
| SMILES | remaining compound [%] |
| --- | --- |
| CCOc1ccccc1NC(=O)N1Cc2c(sc3c2CCCC3)-n2cccc2C1c1ccc(N(C)C)cc1 (stereo not drawn) | 36.5 |
| COc1ccc(-n2cc(CO)c3cnc4c(OC)cccc4c32)c(C)c1 | 70.6 |
| CC(C)n1cc(S(=O)(=O)N2CC(C(=O)O)c3ccccc32)cn1 (stereo not drawn) | 69.4 |
| Nc1ccc(C(=O)Nc2nc(-c3ccc(F)cc3F)cs2)cc1 | 78 |
| C(=C\c1ccccc1)/CNCCCN1CCOCC1 | 84.1 |
| CCN(CC)CCCNc1nc(-n2nc(C)cc2C)nc2sc3c(c12)CC(C)(C)OC3 | 46.5 |
| CC1CCN(c2ccc(-c3noc(C(=O)NCCc4nc5ccccc5[nH]4)n3)cc2)CC1 | 70.5 |
| COc1cc(=O)n2c(c1C(=O)Nc1ccc3c(c1)OCCO3)CCCC2 | 85 |
| CC(Nc1oc(/C=C/c2cccs2)nc1C#N)c1ccccc1 (stereo not drawn) | 2.44 |
| Cc1cc(-c2cc(=O)[nH]c3nc4ccccc4n23)n(C)n1 | 70.4 |
| CC(C)(C)C(=O)Nc1cc(NC(=O)C(C)(C)C)cc(C(=O)Nc2c[nH]c(=O)[nH]c2=O)c1 | 0.685 |
| CC(c1ccc(-c2ccc(S(N)(=O)=O)cc2F)cc1)N1CCOCC1 (stereo not drawn) | 72.9 |
| CCC(=O)Nc1ccc(C(=O)OCc2ccc(C(=O)c3ccccc3)cc2)cc1 | 64.2 |
| COc1cc(C2CCN(C(=O)OC(C)(C)C)CC2)ccc1Nc1ncc(Cl)c2[nH]c3c(S(=O)(=O)C(C)C)cccc3c12 | 46.8 |

Series 2 — effect on: cell-free assay; tested at: 0.5 µM
Target: Ephrin type-A receptor 6 (EPHA6, Homo sapiens, UniProt Q9UF33)
Sequence of UniProt Q9UF33 (whole entry, looked up): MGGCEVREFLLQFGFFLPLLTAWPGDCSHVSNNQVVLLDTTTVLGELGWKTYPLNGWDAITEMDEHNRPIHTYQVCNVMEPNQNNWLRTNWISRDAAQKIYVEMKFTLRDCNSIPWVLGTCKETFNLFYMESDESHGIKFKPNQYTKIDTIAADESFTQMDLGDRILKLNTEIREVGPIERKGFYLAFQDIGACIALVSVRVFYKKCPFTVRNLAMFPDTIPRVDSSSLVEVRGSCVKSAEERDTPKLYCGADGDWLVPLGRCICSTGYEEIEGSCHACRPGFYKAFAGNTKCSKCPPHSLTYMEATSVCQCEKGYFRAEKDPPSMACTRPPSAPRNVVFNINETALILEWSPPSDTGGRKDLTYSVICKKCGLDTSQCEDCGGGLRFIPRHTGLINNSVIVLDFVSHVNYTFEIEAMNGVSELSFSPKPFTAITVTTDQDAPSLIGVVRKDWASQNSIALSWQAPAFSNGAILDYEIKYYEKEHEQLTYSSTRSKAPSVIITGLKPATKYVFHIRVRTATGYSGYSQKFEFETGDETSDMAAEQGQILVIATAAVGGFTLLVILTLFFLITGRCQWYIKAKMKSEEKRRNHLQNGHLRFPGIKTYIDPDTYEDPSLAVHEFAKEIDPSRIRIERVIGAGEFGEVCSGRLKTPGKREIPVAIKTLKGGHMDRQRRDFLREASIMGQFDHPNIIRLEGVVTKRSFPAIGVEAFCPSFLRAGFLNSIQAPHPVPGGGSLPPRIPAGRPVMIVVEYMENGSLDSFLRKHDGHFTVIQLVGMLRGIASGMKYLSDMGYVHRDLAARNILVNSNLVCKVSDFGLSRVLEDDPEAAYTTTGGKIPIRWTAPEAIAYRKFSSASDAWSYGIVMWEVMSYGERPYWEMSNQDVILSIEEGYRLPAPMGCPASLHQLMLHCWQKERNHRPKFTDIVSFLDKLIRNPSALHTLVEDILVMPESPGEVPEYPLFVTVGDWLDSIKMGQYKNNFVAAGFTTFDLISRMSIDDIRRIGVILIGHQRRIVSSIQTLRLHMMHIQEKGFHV
| Structure (SMILES) | remaining signal |
| --- | --- |
| COc1cc2c(Nc3ccc(Br)cc3F)ncnc2cc1OCC1CCN(C)CC1 | 3.27% |
| Cc1ccc(Nc2nccc(N(C)c3ccc4c(C)n(C)nc4c3)n2)cc1S(N)(=O)=O | 80% |
| C[C@@H]1CCN(C(=O)CC#N)C[C@@H]1N(C)c1ncnc2[nH]ccc12 | 99% |

Series 3 — effect on: enzyme activity; mode: inhibitor; tested at: 10 µM
Target: Calcium/calmodulin-dependent protein kinase type II subunit alpha (CAMK2A, Homo sapiens, UniProt Q9UQM7)
Sequence of UniProt Q9UQM7 (whole entry, looked up): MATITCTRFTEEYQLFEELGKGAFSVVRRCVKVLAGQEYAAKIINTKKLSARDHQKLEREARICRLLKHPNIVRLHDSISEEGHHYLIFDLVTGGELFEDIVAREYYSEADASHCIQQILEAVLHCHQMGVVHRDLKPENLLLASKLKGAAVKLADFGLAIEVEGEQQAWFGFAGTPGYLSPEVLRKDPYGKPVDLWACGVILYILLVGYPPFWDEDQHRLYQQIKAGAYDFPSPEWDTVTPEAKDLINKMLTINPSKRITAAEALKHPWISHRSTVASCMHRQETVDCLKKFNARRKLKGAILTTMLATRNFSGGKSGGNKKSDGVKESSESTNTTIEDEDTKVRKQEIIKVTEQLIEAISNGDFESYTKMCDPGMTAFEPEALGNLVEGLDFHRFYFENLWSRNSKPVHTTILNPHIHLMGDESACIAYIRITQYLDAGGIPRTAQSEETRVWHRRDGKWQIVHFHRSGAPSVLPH
| SMILES | inhibition |
| --- | --- |
| CC(=O)O[C@H]1C(=O)[C@@]2(C)[C@H]([C@H](OC(=O)c3ccccc3)[C@]3(O)C[C@H](OC(=O)[C@H](O)[C@@H](NC(=O)c4ccccc4)c4ccccc4)C(C)=C1C3(C)C)[C@]1(OC(C)=O)CO[C@@H]1C[C@@H]2O | 3% |
| COc1c(C)c2c(c(O)c1C/C=C(\C)CCC(=O)O)C(=O)OC2 | 21% |
| C[C@@H]1CC[C@@]2(NC1)O[C@H]1C[C@H]3[C@@H]4CC=C5C[C@@H](O[C@@H]6O[C@H](CO)[C@@H](O[C@@H]7O[C@@H](C)[C@H](O)[C@@H](O)[C@H]7O)[C@H](O)[C@H]6O[C@@H]6O[C@@H](C)[C@H](O)[C@@H](O)[C@H]6O)CC[C@]5(C)[C@H]4CC[C@]3(C)[C@H]1[C@@H]2C | -11% |
| Cn1cnc2[nH]c(=O)[nH]c(=O)c21 | -33% |
| COc1ccc2c(c1O)-c1c(O)c(OC)cc3c1[C@H](C2)[N+](C)(C)CC3 | 57% |
| OCC1=C[C@@H](O)[C@@H]2C=CO[C@@H](O[C@@H]3O[C@H](CO)[C@@H](O)[C@H](O)[C@H]3O)[C@H]12 | 28% |
| CC(C)(CC(=O)O)CC(=O)O | -15% |
| CC1(C)S[C@@H]2[C@H](NC(=O)C(C(=O)Oc3ccc4c(c3)CCC4)c3ccccc3)C(=O)N2[C@H]1C(=O)O (stereo partly drawn) | -6% |
| CC[C@H](C)[C@@H]1NC(=O)[C@@H]2CCCN2C(=O)[C@@H]2CCCN2C(=O)[C@@H]2CCCN2C(=O)[C@H](CC(C)C)NC(=O)CNC(=O)CNC(=O)[C@H](Cc2ccccc2)NC1=O | 25% |

Series 4 — effect on: cell-free assay; technique: competition with immobilised ligand; tested at: 1 µM
SMILES: O=C(NCc1ncc(C(F)(F)F)cc1Cl)c1ccc2c(c1)C1(CCS(=O)(=O)CC1)[C@@H](C1CC1)N2S(=O)(=O)c1ccc(F)cc1
| target | remaining binding |
| --- | --- |
| MAP3K15 (Homo sapiens, UniProt Q6ZN16) | 78% |
| PRKG2 (Homo sapiens, UniProt Q13237) | 89% |
| PIP4K2C (Homo sapiens, UniProt Q8TBX8) | 100% |
| FLT3 (Homo sapiens, UniProt P36888, D835V/ITD) | 67% |
| ALK (Homo sapiens, UniProt Q9UM73, L1196M) | 87% |
| Tyrosine-protein kinase JAK3, JH1 (JAK3, Homo sapiens, UniProt P52333) | 93% |
| EPHB2 (Homo sapiens, UniProt P29323) | 100% |
| OXSR1 (Homo sapiens, UniProt O95747) | 71% |
| PAK5 (Homo sapiens, UniProt Q9P286) | 74% |
| CDK8 (Homo sapiens, UniProt P49336) | 63% |
| BMP2K (Homo sapiens, UniProt Q9NSY1) | 76% |
| GRK4 (Homo sapiens, UniProt P32298) | 100% |
| STK10 (Homo sapiens, UniProt O94804) | 94% |

For quick reference, copied from above (series 1):
| SMILES | remaining compound [%] |
| --- | --- |
| CC1CCN(c2ccc(-c3noc(C(=O)NCCc4nc5ccccc5[nH]4)n3)cc2)CC1 | 70.5 |
| CC(C)n1cc(S(=O)(=O)N2CC(C(=O)O)c3ccccc32)cn1 (stereo not drawn) | 69.4 |
| COc1ccc(-n2cc(CO)c3cnc4c(OC)cccc4c32)c(C)c1 | 70.6 |
| CC(Nc1oc(/C=C/c2cccs2)nc1C#N)c1ccccc1 (stereo not drawn) | 2.44 |
